Results pooled from the literature.
Each line is one published result; not all experiments were run side by side. Values joined by “and” are separate records of one study, mostly repeats; a detail may differ. ± marks the error that the study gave.
Voltage-dependent P/Q-type calcium channel subunit alpha-1A: Voltage-dependent P/Q-type calcium channel subunit alpha-1A (Homo sapiens, UniProt O00555)
TOP2B: DNA topoisomerase 2-beta (TOP2B, Homo sapiens, UniProt Q02880)
ADRA2C: Alpha-2C adrenergic receptor (ADRA2C, Homo sapiens, UniProt P18825)
UCHL1: Ubiquitin carboxyl-terminal hydrolase isozyme L1 (UCHL1, Homo sapiens, UniProt P09936)
BEST1: BEST1 (Homo sapiens, UniProt O76090)

Structure (SMILES)	target	test	system	conditions	scale	quantity	result
C#CCCC1(CC[C@H](NC(=O)NCCCCCCNC(=O)NCCNC(=O)COc2cccc([C@@H](CCc3ccc(OC)c(OC)c3)OC(=O)[C@@H]3CCCCN3C(=O)C(=O)C(C)(C)CC)c2)C(N)=O)N=N1.O=C(O)C(F)(F)F	Peptidyl-prolyl cis-trans isomerase FKBP1A (FKBP1A, Homo sapiens, UniProt P62942)	photoaffinity labeling, in-gel fluorescence, item: Alexa Fluor 647 click label		2 µM, UV irradiation 365 nm	reference: probe over FKBP12 signal, higher = more labeling	normalized labeling ratio	5.08
O=C(NC1CCC1)c1ccc2nc(-c3cccc(NS(=O)(=O)NCCN4CCCCC4)c3)cn2c1	Serine/threonine-protein kinase Nek10 (NEK10, Homo sapiens, UniProt Q6ZWH5)	enzyme activity		10 µM		remaining activity	94%
Nc1c(Br)cc(Br)cc1CN[C@H]1CC[C@H](O)CC1	Voltage-dependent P/Q-type calcium channel subunit alpha-1A	ion current, antagonist	HEK293	30 µM		inhibition	59%
COc1cc(-c2cc(C(C)=O)n3ccccc23)cc(OC)c1Cn1ccnc1	Bromodomain-containing protein 4, BD2 (BRD4, Homo sapiens, UniProt O60885)					ΔTm	5.1 °C
CCc1cnn2c(NCc3ccc[n+]([O-])c3)cc(N3CCCC[C@H]3CCO)nc12	Bromodomain-containing protein 4 (BRD4, Homo sapiens, UniProt O60885)	19F NMR, item: tyrosine 119		94 µM	reference: free protein	chemical shift change	-0.037 ppm
CC(C)COc1ccc(CNC(=O)N(Cc2ccc(F)cc2)C2CCN(C)CC2)cc1	Voltage-dependent P/Q-type calcium channel subunit alpha-1A	ion current, antagonist	HEK293	30 µM		inhibition	97%
O=c1nc(SCc2cc(F)cc(C(F)(F)F)c2)nc(SCc2ccc3nc(Cl)ccc3c2)[nH]1	TOP2B	decatenation		125 µM, replicate 1		decatenated DNA	0.23%
O=S(=O)(Nc1ccc(C2CCOC2)cc1)c1cccc(Cl)c1O (centres unmarked)	malate dehydrogenase	enzyme activity, inhibitor		200 µM, pH 7.0, 1% DMSO, aggregation counter-screen		remaining activity	81%
Cc1cc(Oc2ncccc2CN2CCN(c3ccc(F)c(F)c3)CC2)ccc1-c1c(C)c(=O)[nH]c(=O)n1C	ADRA2C	binding, radioligand binding		added: [3H]rauwolscine	reference: Ki alpha2B over Ki alpha2C	selectivity ratio	3
Cc1ccc(C2(F)CC2N)cc1 (centres unmarked)	tyramine oxidase (Arthrobacter sp.)	substrate, Lineweaver-Burk plot				kcat	0.12 ± 0.01 s⁻¹
CC[C@@H](C)[C@@H](NC(=O)[C@@H](Cc1ccc(O)cc1)NC(=O)[C@H]1CCCN1C(=O)[C@@H](CCCNC(=N)N)NC(=O)[C@H](N)Cc1c[nH]cn1)C(=O)N[C@H](C)C(=O)N[C@H](Cc1c[nH]cn1)C(=O)N[C@H](CCCNC(=N)N)C(=O)N[C@@H](C(=O)N[C@H](Cc1ccc(O)cc1)C(=O)N[C@H](CO)C(=O)N[C@H](Cc1ccccc1)C(N)=O)C(C)C	Transferrin receptor protein 1 (Tfrc, Mus musculus, UniProt Q62351)	flow cytometry	DC2.4	48 h, pH 7.4, unit not given	reference: 0 h	surface TFRC expression	0.305
C=CC(=O)N1CCC[C@@H](n2nc(-c3ccc(Oc4ccccc4)cc3)c3c(N)ncnc32)C1	Activated CDC42 kinase 1 (TNK2, Homo sapiens, UniProt Q07912)			10 µM		remaining activity	38.1%
C=CCNC(=O)C(C#N)=Cc1ccc(C#N)cc1	UCHL1	covalent, intact protein LC-MS		12.5 µM		labelling	19.3%
Cc1cc(Oc2ncccc2CN2CCN(c3ccc(Cl)cc3)CC2)ccc1-c1c(C)c(=O)[nH]c(=O)n1C	ADRA2C	binding, radioligand binding		added: [3H]rauwolscine	reference: Ki alpha2B over Ki alpha2C	selectivity ratio	4
CC(NC(=O)CCCc1ccc2ccc3cccc4ccc1c2c34)C(=O)NO (centres unmarked)	Histone deacetylase 8 (HDAC8, Homo sapiens, UniProt Q9BY41)	ITC	triethanolamine buffer	pH 7.5		TΔS	6 kcal/mol
COc1cc(NC(=O)c2cscn2)ccc1/N=N/c1ccccc1Cl	Metabotropic glutamate receptor 6 (Homo sapiens, UniProt O15303)	positive allosteric modulator, IP accumulation	HEK293	30 µM, in the dark, added: low-dose orthosteric agonist		activation	45.3%
COc1ccc(C2=NN(C(=O)CCl)C(c3cccc(C)c3)C2)cc1 (centres unmarked)	UCHL1	covalent, intact protein LC-MS		12.5 µM		labelling	24.1%
Cc1cc(Oc2ncccc2CN2CCN(c3cc(Cl)cc(Cl)c3)CC2)ccc1-c1c(C)c(=O)[nH]c(=O)n1C	ADRA2C	binding, radioligand binding		added: [3H]rauwolscine	reference: Ki alpha2B over Ki alpha2C	selectivity ratio	3
N#CC(=Cc1ccccc1OC(F)F)C(=O)Nc1ccccc1F	UCHL1	covalent, intact protein LC-MS		12.5 µM		labelling	37.4%
Cc1ccnc([18F])c1-c1cccc(N2C[C@H](N3CCN(C(=O)c4nccs4)CC3)CC2=O)c1	Monoglyceride lipase (Macaca mulatta, UniProt H9ESL3)	PET Scatchard plot	rhesus monkey, brain CB	baseline		Bmax	41.9 nmol/g
O=C(O)c1occc1S(=O)(=O)NCc1cc2cc(F)ccc2[nH]1	malate dehydrogenase	enzyme activity, inhibitor		200 µM, pH 7.0, 1% DMSO, aggregation counter-screen		remaining activity	111%
Nc1nc2c(ncn2[C@@H]2O[C@H](COP(=O)(O)O)[C@@H](O)[C@H]2O)c(=O)[nH]1	GUK1 (Homo sapiens, UniProt Q16774, Y53A)	enzyme activity, NADH-coupled		1000 µM		reaction rate	6.08 s⁻¹ and 7.11 s⁻¹ and 6.49 s⁻¹
CCC1(O)CCCN(C(=O)c2ccc(-c3ccc(F)c(NC(=O)CCl)c3)cc2)C1 (centres unmarked)	DNA dC->dU-editing enzyme APOBEC-3B, C-terminal domain (Homo sapiens, UniProt Q9UH17)	covalent modifier, intact protein mass spectrometry, item: adduct +25721 Da		25 µM, 1 h, 1-fold molar excess		protein adduct	11.5%
Cc1nc(CSc2nc(SCc3ccc(C(C)C)cc3)nc(=O)[nH]2)cs1	TOP2B	decatenation		31.25 µM, replicate 1		decatenated DNA	9.12%
COc1ccc(-c2cc(OCC(=O)N(C)Cc3cccnc3C)nc(-n3nc(C)cc3C)n2)cc1	Endoplasmic reticulum aminopeptidase 2 (ERAP2, Homo sapiens, UniProt Q6P179)			added: Leu-AMC substrate	reference: IRAP over ERAP2	selectivity ratio	> 200 fold
CC(=C/C(=O)O)/C=C/C=C(\C)C1C=C2C(C)(C)CCCC2(C)O1 (centres unmarked)	Rhodopsin (RHO, Homo sapiens, UniProt P08100, T17M)	immunostaining, item: opsin	COS-7 transfected	10.00 µM, unit not given	reference: surface over total stained cells	plasma membrane localization	0.6
Oc1ccc(/C=C/c2cc(O)cc(O)c2)cc1	O-methyltransferase (Sorghum bicolor, UniProt A0A1B6PFV1)	ITC		added: MET+		-TΔS	5.06 kcal/mol

Structure (SMILES)	target	test	system	conditions	scale	quantity	result
CC1(C)CC(NS(=O)(=O)c2cccc(Cl)c2O)c2ccc(F)cc2O1 (centres unmarked)	malate dehydrogenase	enzyme activity, inhibitor		100 µM, pH 7.0, 1% DMSO, aggregation counter-screen		remaining activity	102%
Nc1ncnc2c1ncn2[C@@H]1O[C@H](COP(=O)(O)CP(=O)(O)OP(=O)(O)O)[C@@H](O)[C@H]1O	P2X purinoceptor 1 (P2RX1, Homo sapiens, UniProt P51575, L218T)	calcium influx		3.16 µM	reference: ionomycin response	calcium influx	99.1% and 88.8% and 96.5%
O=C(O)C1=CCNCC1	BEST1	whole-cell patch clamp	HEK293 transiently expressing channel	concentration not given, membrane potential 100 mV		current density	84.4 pA/pF and 181 pA/pF and 96.8 pA/pF and 145 pA/pF and 59.5 pA/pF and 160 pA/pF
Nc1ncnc2c1ncn2[C@@H]1O[C@H](COP(=O)(O)OP(=O)(O)O)[C@@H](O)[C@H]1O	Creatine kinase U-type, mitochondrial (CKMT1A, Homo sapiens, UniProt P12532, D359N)	substrate, Kinase-Glo luminescence		pH 7.0, reverse reaction, D321N mutant, added: second substrate in excess		Km	9 ± 1 µM
CCCCCCCC/C=C\CCCCCCCC(=O)NCCc1ccc(O)c(O)c1	Transient receptor potential cation channel subfamily V member 1 (Trpv1, Mus musculus, UniProt Q704Y3, R580K)	ion current, agonist, whole-cell patch clamp		R580K	reference: 3 mM 2-APB	maximal open probability	0.62 ± 0.1
O=c1nc(SCc2cc(F)cc(C(F)(F)F)c2)nc(SCc2ccc3sccc3c2)[nH]1	TOP2B	decatenation		7.8 µM		mean decatenated DNA	100%
Oc1ccccc1-c1n[nH]cc1-c1ccnc2ccccc12	Histidine protein kinase NIK1 (NIK1, Candida albicans, UniProt Q5A599)	kinase binding, MIB/MS competition	Candida albicans lysate	10 µM	reference: DMSO, negative = stronger binding	log2 fold change	-0.17
O=C(O)c1ccc([N+](=O)[O-])cc1	BEST1	whole-cell patch clamp	HEK293 transiently expressing channel	concentration not given, membrane potential 100 mV		current density	179 pA/pF and 154 pA/pF and 251 pA/pF and 110 pA/pF and 169 pA/pF and 83.3 pA/pF and 82.6 pA/pF
O=C1NC(=O)C(c2ccccc2)(c2ccccc2)N1	Voltage-dependent P/Q-type calcium channel subunit alpha-1A	antagonist	HEK293	3 µM		inhibition	18%
O=S(=O)(O)C1CCNCC1	Sodium- and chloride-dependent taurine transporter (SLC6A6, Homo sapiens, UniProt P31641, G62A)	binding, microscale thermophoresis		30.5 nM, room temperature, added: 50 nM labelled protein	higher = more binding	normalised MST signal	-0.00657
CCc1ccc(S(=O)(=O)n2nc(SCc3ccc(Cl)cc3)nc2N)cc1	Lysophospholipase-like protein 1 (Mus musculus, UniProt Q3UFF7)	enzyme activity, activator, gel-based ABPP	purified protein	concentration not given, added: FP-rhodamine	reference: DMSO	probe labeling increase	1.9 fold
CC(=O)N[C@@H](Cc1c[nH]c2ccccc12)C(=O)N[C@@H](CC(=O)O)C(=O)N1CCC[C@H]1C(=O)N1CCC[C@H]1C(=O)N[C@@H](CC(C)C)C(=O)N[C@@H](Cc1c[nH]cn1)C(=O)N[C@@H](CO)C(=O)N[C@H](C(=O)N[C@@H](C)C(N)=O)[C@@H](C)OP(=O)(O)O	Serine/threonine-protein kinase PLK1 (PLK1, Homo sapiens, UniProt P53350)	polo-box domain binding, isothermal titration calorimetry		concentration not given, 25 °C		binding stoichiometry	0.99
CC(Oc1ccccc1)C(=O)NCc1ccccn1 (centres unmarked)	Leucine-rich repeat serine/threonine-protein kinase 2, WD40 domain (LRRK2, Homo sapiens, UniProt Q5S007)	binding, affinity selection mass spectrometry			reference: other proteins in batch	log fold enrichment	0.313
CN(c1ccccc1)S(=O)(=O)c1cccc(NC(=O)CCl)c1	UCHL1	covalent, intact protein LC-MS		12.5 µM		labelling	13.3%
C=CC(=O)N1CCC(COCC(=O)N2CCN(c3nc(-c4cnc(N)nc4C(F)F)nc(N4CCOC[C@@H]4C)n3)CC2)CC1	Tyrosine-protein kinase ABL1, phosphorylated (ABL1, Homo sapiens, UniProt P00519, H396P)	KINOMEscan		1 µM		remaining binding	91%
O=C(NCCF)c1cncn1-c1ccc(-c2ccc(F)c(F)c2)cc1	UCHL1	covalent, intact protein LC-MS		12.5 µM		labelling	13.1%
O=S(=O)(NC1CCCC12OCCO2)c1cccc(Cl)c1O (centres unmarked)	malate dehydrogenase	enzyme activity, inhibitor		200 µM, pH 7.0, 1% DMSO, aggregation counter-screen		remaining activity	97%
C[C@H](CCC(C)(C)O)[C@H]1CC[C@H]2[C@@H]3CC=C4C[C@@](C)(O)CC[C@]4(C)[C@H]3CC[C@]12C	Glutamate NMDA receptor; GRIN1/GRIN2B (GRIN1/GRIN2B, Homo sapiens, UniProt Q05586+Q13224, E657A)	positive allosteric modulator, two-electrode voltage clamp	Xenopus oocytes expressing GluN2B-E657A	10 µM, 0.02% cremophor, added: 100 µM glutamate and glycine	reference: without compound	current response	154 ± 2.4%
C=C1C(=O)O[C@@H]2C[C@@]3(C)CCCC(=C)[C@@H]3C[C@H]12	Nuclear receptor subfamily 1 group I member 3 (Homo sapiens, UniProt Q14994)	reporter gene, Gal4 hybrid reporter		10 µM	reference: vehicle	activation	1 fold
CC(=O)N[C@H]1[C@H](Oc2ccc([N+](=O)[O-])cc2)O[C@H](CO)[C@@H](O)[C@@H]1O	beta-N-acetylglucosaminidase, rabbit alveolar macrophage	substrate, p-nitrophenol release		pH 4.3, 37 °C, Sephadex G-200 purified		Km	1030 ± 100 µM
COc1ccc(NC(=O)C(C#N)=Cc2cccc(O)c2)cc1OC	UCHL1	covalent, intact protein LC-MS		12.5 µM		labelling	30.7%
CCN1CCN(c2cc(N3CCN(CC)CC3)nc(NCCNc3ccnc4cc(Cl)ccc34)n2)CC1	Thyroid hormone receptor alpha (THRA, Homo sapiens, UniProt P10827)	reporter gene, Gal4 hybrid reporter		20 µM	reference: vehicle	activation	1.4 ± 0.64 fold
Cc1ccc(-n2c(C)cc(C(=O)CCl)c2C)cc1C	UCHL1	covalent, intact protein LC-MS		12.5 µM		labelling	24.2%
Cc1cc2c(cc1N1C(=O)c3cccc4c(Cl)ccc(c34)C1=O)n(C)c(=O)n2C	Bromodomain-containing protein 4, BD1 (BRD4, Homo sapiens, UniProt O60885)			10 µM		delta Tm	0.8 °C
CC(Oc1cccc(F)c1F)C(=O)N1CCN(C(=O)CCl)CC1 (centres unmarked)	UCHL1	covalent, intact protein LC-MS		12.5 µM		labelling	9.82%
O=C(O)c1ccc(Nc2ncc3c(n2)-c2ccc(Cl)cc2C(c2c(F)cccc2F)=NC3)cc1	FGFR3(h)	kinase activity		1 µM		remaining activity	86%
